{"data": "Published values of several laboratories", "note": "Compare with care: the assays were run in different laboratories."}
{"SMILES": "CC(=O)N1CCN(c2ccc(OCC3COC(Cn4ccnc4)(c4ccc(Cl)cc4Cl)O3)cc2)CC1 (stereo not drawn)", "system": "healthy humans, both sexes, plasma", "conditions": "oral, 200 mg twice daily, compound alone", "AUCtau": "31500 ng·h/mL"}
{"SMILES": "Fc1ccc([C@@H]2CCNC[C@H]2COc2ccc3c(c2)OCO3)cc1", "system": "human, all CYP2D6 genotypes", "conditions": "oral, 20 mg, steady state, dosing interval 24 h, geometric mean", "AUCtau": "511 ng·h/mL"}
{"SMILES": "Cc1cc(-c2nccc3c2ccn3CC(=O)Nc2ccc(-c3cnccn3)cn2)ccn1", "system": "human, plasma", "conditions": "oral, 5 mg once daily, day 16, geometric mean", "AUCtau": "0.534 µM·h"}
{"SMILES": "C[C@H]1Oc2cc(cnc2N)-c2c(nn(C)c2C#N)CN(C)C(=O)c2ccc(F)cc21", "system": "human patients, plasma", "conditions": "oral, dose not given, cycle 2 day 1, geometric mean, added: avelumab", "AUCtau": "5810 ng·h/mL"}
{"SMILES": "CCCCCCCOc1ccc(CCC(N)(CO)CO)cc1C(F)(F)F.Cl", "system": "healthy male humans, plasma", "conditions": "0.5 mg, day 21, mean", "AUCtau": "73.6 ng·h/mL"}
{"SMILES": "C[C@@H](Oc1cc(-c2cnn(C3CCNCC3)c2)cnc1N)c1c(Cl)ccc(F)c1Cl", "system": "human patients, plasma", "conditions": "oral, dose not given, cycle 2 day 1, geometric mean, added: avelumab", "AUCtau": "2760 ng·h/mL"}
{"SMILES": "COc1ccc(F)cc1C(=O)NCc1ccc(-c2nn([C@@H](C)C(F)(F)F)c(N)c2C(N)=O)cc1", "system": "human, plasma", "conditions": "oral, 200 mg once daily, added: oral repaglinide", "AUCtau": "105000 ng·h/mL"}
{"SMILES": "Cc1noc(C)c1-c1cc(C(O)(c2ccccn2)c2ccccn2)c2nc(C3CC3)[nH]c2c1", "system": "human, plasma", "conditions": "oral, 3 mg, cycle 1 day 8, monotherapy", "AUCtau": "4390 ng·h/mL"}
{"SMILES": "C=CC(=O)Nc1cc(Nc2nccc(Nc3cc(Cl)c(F)cc3C(C)(C)O)n2)c(OC)cc1N1CC[C@@H](N(C)C)C1", "system": "human patients, plasma", "conditions": "oral, 400 mg daily, cycle 2 day 1, geometric mean", "AUCtau": "16700 ng·h/mL"}
{"note": "Excerpt of the above:"}
{"SMILES": "COc1ccc(F)cc1C(=O)NCc1ccc(-c2nn([C@@H](C)C(F)(F)F)c(N)c2C(N)=O)cc1", "system": "human, plasma", "conditions": "oral, 200 mg once daily, added: oral repaglinide", "AUCtau": "105000 ng·h/mL"}
